Results pooled from the literature.
Compare with care: the assays were run in different laboratories. Numbers after ± are the reported error.

C[C@H]1CNCCc2ccc(Cl)cc21
plasma concentration (Sprague-Dawley rat, male, plasma; subcutaneous, 1 mg/kg, 30 min): 27.5 ± 1.1 ng/mL

Cc1ncc2n1-c1ccc(Cl)cc1C(c1ccccc1F)=NC2
Tmax (human CYP3A5 expressers, serum; oral, together with: ketoconazole 200 mg): 48 min

COc1ccc2c(c1)[C@]13CCCC[C@@H]1[C@H](C2)N(C)CC3
Tmax (Wistar rat, both sexes, plasma; oral, 5 mg/kg, 2 h after pretreatment, together with: single TCE 100 mg/kg): 30.6 ± 17.4 min

C=C1C[C@@H]2[C@H](CC[C@]3(C)C(=O)CC[C@@H]23)[C@@]2(C)C=CC(=O)C=C12
median plasma concentration (LC-MS/MS; postmenopausal breast cancer women, plasma; oral, 25 mg/day, 2 h, AKR7A2 A142T homozygous variant): 22.4 ng/mL

CN[C@@](C)(C[18F])C(=O)O
tracer uptake (mouse, blood; 15 min, tumour-bearing): 2.4 %ID/g

CN1CC[C@@]23CCCC[C@@H]2[C@@H]1Cc1ccc(O)cc13
AUC(0-t) (Wistar rat, both sexes, plasma; oral, 5 mg/kg DEM, DEM 2 h after pretreatment, together with: TCE 400 mg/kg single pretreatment): 53.4 ± 23.8 ng·h/mL

COc1ccsc1CNCC[C@@]1(c2ccccn2)CCOC2(CCCC2)C1
clearance (healthy human, normal renal function, plasma; intravenous, 1 mg single dose, arithmetic mean): 935 mL/min

CCCCCCCCCCC(=O)O[C@H]1CC[C@H]2[C@@H]3CCC4=CC(=O)CC[C@]4(C)[C@H]3CC[C@]12C
serum testosterone (blood of hypogonadal men, plain tubes; 300 ng/mL): 242 ± 15.2 ng/dL

Cc1ncc2n1-c1ccc(Cl)cc1C(c1ccccc1F)=NC2
Cmax (healthy men, plasma; oral, 7.5 mg, day 26, geometric mean, together with: 14 days post amenamevir): 36.8 ng/mL

For quick reference, copied from above:
COc1ccsc1CNCC[C@@]1(c2ccccn2)CCOC2(CCCC2)C1
clearance (healthy human, normal renal function, plasma; intravenous, 1 mg single dose, arithmetic mean): 935 mL/min
